Published values from different studies.
Numbered parts are unrelated; each lists some results of a single study.
Sequence of UniProt Q9Y4B6 (whole entry, looked up): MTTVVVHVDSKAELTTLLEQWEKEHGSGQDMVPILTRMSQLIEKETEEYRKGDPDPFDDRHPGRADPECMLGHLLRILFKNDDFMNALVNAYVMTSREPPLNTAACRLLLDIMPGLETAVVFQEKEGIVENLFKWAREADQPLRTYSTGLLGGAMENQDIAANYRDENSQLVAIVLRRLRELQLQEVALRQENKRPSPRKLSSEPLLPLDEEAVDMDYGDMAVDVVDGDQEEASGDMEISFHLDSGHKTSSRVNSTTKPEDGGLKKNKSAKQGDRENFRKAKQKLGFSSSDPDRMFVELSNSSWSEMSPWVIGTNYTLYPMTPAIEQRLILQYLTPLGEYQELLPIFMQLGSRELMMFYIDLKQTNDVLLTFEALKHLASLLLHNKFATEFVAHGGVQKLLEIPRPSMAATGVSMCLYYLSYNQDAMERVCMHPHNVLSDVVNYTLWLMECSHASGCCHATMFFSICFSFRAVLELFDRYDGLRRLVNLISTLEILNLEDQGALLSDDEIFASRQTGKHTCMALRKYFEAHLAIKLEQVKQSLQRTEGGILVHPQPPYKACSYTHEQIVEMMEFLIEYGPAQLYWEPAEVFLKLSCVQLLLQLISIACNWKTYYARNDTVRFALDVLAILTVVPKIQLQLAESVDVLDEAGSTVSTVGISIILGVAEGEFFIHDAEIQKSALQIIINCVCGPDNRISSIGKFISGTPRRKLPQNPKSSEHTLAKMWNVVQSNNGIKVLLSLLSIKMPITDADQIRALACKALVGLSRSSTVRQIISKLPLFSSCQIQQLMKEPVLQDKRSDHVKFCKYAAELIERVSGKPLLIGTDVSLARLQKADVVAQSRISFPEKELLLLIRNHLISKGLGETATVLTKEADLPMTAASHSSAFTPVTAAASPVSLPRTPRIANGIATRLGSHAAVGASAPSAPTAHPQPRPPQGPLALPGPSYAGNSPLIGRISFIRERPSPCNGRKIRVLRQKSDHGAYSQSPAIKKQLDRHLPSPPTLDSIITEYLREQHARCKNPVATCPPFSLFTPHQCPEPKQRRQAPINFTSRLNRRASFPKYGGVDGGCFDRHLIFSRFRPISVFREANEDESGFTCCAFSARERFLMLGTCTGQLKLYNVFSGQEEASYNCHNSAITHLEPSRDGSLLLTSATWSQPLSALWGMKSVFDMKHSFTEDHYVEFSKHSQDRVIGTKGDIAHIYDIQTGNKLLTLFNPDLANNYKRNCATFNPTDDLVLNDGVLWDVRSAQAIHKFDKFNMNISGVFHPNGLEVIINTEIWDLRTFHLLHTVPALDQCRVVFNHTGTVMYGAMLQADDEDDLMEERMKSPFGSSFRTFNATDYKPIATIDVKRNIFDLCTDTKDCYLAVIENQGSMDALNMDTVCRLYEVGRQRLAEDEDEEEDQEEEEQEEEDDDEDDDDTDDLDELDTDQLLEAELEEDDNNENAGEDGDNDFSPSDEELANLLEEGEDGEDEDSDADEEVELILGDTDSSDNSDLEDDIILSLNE

Sample 1
SMILES: C=CCc1ccc(O)c(-c2cc(CC=C)ccc2O)c1
Observed: chloride current
Technique: whole-cell voltage clamp
ANO1 D383A/del476-501: Anoctamin-1 (ANO1, Homo sapiens, UniProt Q5XXA6, D383A/del476-501)
Sequence of UniProt Q5XXA6 (whole entry, unmodified, looked up): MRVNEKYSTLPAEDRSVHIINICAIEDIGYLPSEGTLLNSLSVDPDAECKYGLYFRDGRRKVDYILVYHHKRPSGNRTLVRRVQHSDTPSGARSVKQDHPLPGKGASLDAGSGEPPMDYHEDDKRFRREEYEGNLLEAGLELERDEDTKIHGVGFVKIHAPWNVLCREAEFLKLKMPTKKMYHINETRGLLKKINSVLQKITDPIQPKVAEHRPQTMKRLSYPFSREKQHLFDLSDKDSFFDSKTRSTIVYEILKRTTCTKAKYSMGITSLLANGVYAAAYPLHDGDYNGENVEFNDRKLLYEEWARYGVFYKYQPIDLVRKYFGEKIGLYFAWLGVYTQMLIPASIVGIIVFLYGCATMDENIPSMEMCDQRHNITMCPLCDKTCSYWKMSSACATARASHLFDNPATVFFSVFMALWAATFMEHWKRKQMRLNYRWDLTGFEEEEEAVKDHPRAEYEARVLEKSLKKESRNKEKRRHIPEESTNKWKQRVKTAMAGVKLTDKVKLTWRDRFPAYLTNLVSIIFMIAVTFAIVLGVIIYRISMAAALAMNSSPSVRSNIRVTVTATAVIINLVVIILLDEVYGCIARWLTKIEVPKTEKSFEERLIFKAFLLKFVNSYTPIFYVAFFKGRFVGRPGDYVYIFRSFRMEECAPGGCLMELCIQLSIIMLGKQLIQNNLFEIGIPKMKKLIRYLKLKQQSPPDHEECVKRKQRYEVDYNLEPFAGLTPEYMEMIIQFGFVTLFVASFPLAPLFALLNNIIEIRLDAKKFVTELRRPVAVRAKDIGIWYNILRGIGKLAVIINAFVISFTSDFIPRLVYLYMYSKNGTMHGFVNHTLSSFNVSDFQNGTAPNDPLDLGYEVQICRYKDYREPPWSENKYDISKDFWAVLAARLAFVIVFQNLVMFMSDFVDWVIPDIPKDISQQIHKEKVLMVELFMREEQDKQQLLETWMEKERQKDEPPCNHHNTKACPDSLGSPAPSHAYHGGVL
ANO1 del476-501/F623A: Anoctamin-1 (ANO1, Homo sapiens, UniProt Q5XXA6, del476-501/F623A)
ANO1 del476-501/E649K: Anoctamin-1 (ANO1, Homo sapiens, UniProt Q5XXA6, del476-501/E649K)
target | mode | concentration | setting | with | IC50 [µM]
Anoctamin-1 (ANO1, Homo sapiens, UniProt Q5XXA6, del476-501/R541I) | inhibitor | – | R515I mutant at 20 mV | – | 48.4
Anoctamin-1 (ANO1, Homo sapiens, UniProt Q5XXA6, del476-501/R541K) | inhibitor | – | R515K mutant at -40 mV | – | 17.1
Anoctamin-1 (ANO1, Homo sapiens, UniProt Q5XXA6, del476-501/E650A) | – | – | membrane voltage 20 mV | – | 14.4
Anoctamin-1 (ANO1, Homo sapiens, UniProt Q5XXA6, del476-501/E649I) | inhibitor | – | E623I mutant at -100 mV | – | 142
ANO1 D383A/del476-501 | – | – | membrane voltage 40 mV | – | 24.3
Anoctamin-1 (ANO1, Homo sapiens, UniProt Q5XXA6, del476-501/F627A) | – | – | membrane voltage -60 mV | – | 28.1
ANO1 del476-501/F623A | – | – | membrane voltage -80 mV | – | 59.8
Anoctamin-1 (ANO1, Homo sapiens, UniProt Q5XXA6, del476-501/K629D) | inhibitor | 100 mV holding voltage | – | – | 240
Anoctamin-1 (ANO1, Homo sapiens, UniProt Q5XXA6, del476-501) | – | – | membrane voltage 80 mV | 300 nM Ca2+ | 24.7
ANO1 del476-501/F623A | – | – | membrane voltage -100 mV | – | 65.8
ANO1 del476-501/E649K | inhibitor | – | E623K mutant at 60 mV | – | 117
ANO1 del476-501/E649K | inhibitor | – | E623K mutant at -80 mV | – | 185
ANO1 del476-501/E649K | inhibitor | – | E623K mutant at 40 mV | – | 124
ANO1 D383A/del476-501 | – | – | membrane voltage -40 mV | – | 24.5

Sample 2
Target: AP2-associated protein kinase 1 (AAK1, Homo sapiens, UniProt Q2M2I8)
Sequence of UniProt Q2M2I8 (whole entry, looked up): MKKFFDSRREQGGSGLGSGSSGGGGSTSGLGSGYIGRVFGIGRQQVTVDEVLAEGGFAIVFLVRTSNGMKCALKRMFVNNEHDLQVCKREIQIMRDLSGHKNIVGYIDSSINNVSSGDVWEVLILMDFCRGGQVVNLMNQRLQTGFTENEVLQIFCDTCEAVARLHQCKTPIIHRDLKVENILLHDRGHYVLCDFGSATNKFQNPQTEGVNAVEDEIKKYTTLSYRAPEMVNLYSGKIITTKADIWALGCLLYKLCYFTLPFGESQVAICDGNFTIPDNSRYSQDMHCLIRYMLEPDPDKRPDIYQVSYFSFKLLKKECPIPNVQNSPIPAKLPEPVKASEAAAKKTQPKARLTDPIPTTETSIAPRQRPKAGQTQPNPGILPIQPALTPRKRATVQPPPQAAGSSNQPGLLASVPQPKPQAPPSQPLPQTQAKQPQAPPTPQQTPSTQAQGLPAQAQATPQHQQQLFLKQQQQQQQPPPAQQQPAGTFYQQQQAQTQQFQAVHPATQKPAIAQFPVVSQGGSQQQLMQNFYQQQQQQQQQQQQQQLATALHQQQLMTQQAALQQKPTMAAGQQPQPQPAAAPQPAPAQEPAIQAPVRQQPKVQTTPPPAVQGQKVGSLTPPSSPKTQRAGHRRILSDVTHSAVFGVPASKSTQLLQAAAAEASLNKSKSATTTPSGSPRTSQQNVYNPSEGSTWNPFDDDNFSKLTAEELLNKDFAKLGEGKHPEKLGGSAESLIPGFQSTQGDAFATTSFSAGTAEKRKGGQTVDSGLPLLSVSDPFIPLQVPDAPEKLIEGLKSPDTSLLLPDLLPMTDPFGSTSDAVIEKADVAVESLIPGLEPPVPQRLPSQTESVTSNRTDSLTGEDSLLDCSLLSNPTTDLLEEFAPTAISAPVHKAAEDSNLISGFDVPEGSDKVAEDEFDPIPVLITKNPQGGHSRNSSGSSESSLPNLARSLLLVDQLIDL
Observed: binding
Concentration: 0.1 µM
SMILES | remaining binding [%]
C[C@@H]1CN(c2cc(-c3n[nH]c4ccc(OC5(C)CC5)cc34)ncn2)C[C@H](C)O1 | 100
C[C@@H](NC(=O)Nc1cc2[nH]ncc2c(CO)n1)c1ccccc1 | 52.5
Cc1cc(Nc2nccc(C)n2)cc(-c2cnc([C@@]3(O)CC[C@H](C(=O)O)C(C)(C)C3)s2)c1 | 100
Cc1ccc(-c2cnc([C@@]3(O)CC[C@H](C(=O)O)C(C)(C)C3)s2)cc1Nc1cccc(C(F)(F)F)n1 | 85.7

Sample 3
Species: human
Matrix: microsomes or S9
Concentration: 2 µM
Time: 0.5 h
Structure (SMILES) | remaining compound [%]
CC(C)(C)OC(=O)CCc1nc(Cc2cccc3cccnc23)no1 | 0.751
CCc1nc(C)sc1CNC(=O)Nc1ccc2c(cnn2C)c1 | 79.7
CCOc1ccccc1CN1CCN(Cc2c[nH]c3nccnc23)C(C)C1 (centres unmarked) | 42.1
Nc1noc2cc(OCCCCCOc3ccc4c(N)noc4c3)ccc12 | 95.5
CCOC(=O)N1CCN(S(=O)(=O)c2c(C)c(C)c(C)c(C)c2C)CC1 | 2.84
CCOc1ccc(OCC)c(NC(=O)c2cc(S(=O)(=O)N3CCc4ccccc43)cn2C)c1 | 3.06
CC(=O)c1c(C)cn(CC(O)CN2CCNCC2)c1C (centres unmarked) | > 99.9
O=C(NC1CCOCC1)N1CCC(CCc2ccc(O)cc2)CC1 | > 100
CC(C)=C1CC[C@H](C)[C@](C)(COc2ccc3ccc(=O)oc3c2)[C@@H]1CCC(N)=O | 0
CC(C)c1c(C(O)c2ccccc2)[nH]c(=O)[nH]c1=O (centres unmarked) | 56.9
CS(=O)(=O)CCCC(=O)N(CC(=O)O)C1CCCCC1 | 79.2
O=C(c1cccnc1Cl)N1CCN(c2nc3nccc(-c4cccs4)n3n2)CC1 | 94.8
CCC(C)Nc1c(C(C)=O)c(=O)[nH]c2c(C(=O)OC)scc12 (centres unmarked) | 1.54
Cc1onc2c(=O)n(C)nc(C(=O)N3CCN(C)CC3C)c12 (centres unmarked) | 62.9
CCn1nc(C2CCCCN2C(=O)NC(C)C)c2c1CCOC2 (centres unmarked) | 68.9
COc1ccccc1N(C)C(=O)c1cc(S(=O)(=O)N2CCOCC2)cn1C | 42.5

Further values, each from its own experiment
SMILES | target | technique | concentration | endpoint | result
C[C@@H]1CN(c2ccc(-c3cc(C(=O)NCCOCCOCCOCCOCCNC(=O)Cn4cc(-c5[nH]cc(C(=O)N[C@@H](CC(N)=O)c6ccc(F)c(Cl)c6)c5-c5ccc(Cl)cc5F)cn4)ccc3F)cc2NC(=O)c2c[nH]c(=O)cc2C(F)(F)F)C[C@H](C)N1C | DDB1- and CUL4-associated factor 1 (DCAF1, Homo sapiens, UniProt Q9Y4B6) | SPR | concentration not given | binding | 74.3%

For quick reference, copied from above (sample 1):
target | mode | concentration | setting | with | IC50 [µM]
ANO1 del476-501/E649K | inhibitor | – | E623K mutant at -80 mV | – | 185
Anoctamin-1 (ANO1, Homo sapiens, UniProt Q5XXA6, del476-501/E649I) | inhibitor | – | E623I mutant at -100 mV | – | 142
Anoctamin-1 (ANO1, Homo sapiens, UniProt Q5XXA6, del476-501) | – | – | membrane voltage 80 mV | 300 nM Ca2+ | 24.7
ANO1 del476-501/E649K | inhibitor | – | E623K mutant at 60 mV | – | 117
